Results gathered from unrelated publications.
Every numbered part comes from another study and shows a few of its results, in no order. Substitutions count along the parent as printed.

Sample 1 — target: MAFK, bZIP domain (human); technique: DHFR protein complementation; medium: yeast; baseline: wild-type JUN-FOS pair; reading: higher = stronger binding
Setting: single substitutions, most at no-binding floor
Parent: JUN, bZIP domain (human); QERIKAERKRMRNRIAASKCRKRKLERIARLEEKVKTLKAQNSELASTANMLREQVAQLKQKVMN; partner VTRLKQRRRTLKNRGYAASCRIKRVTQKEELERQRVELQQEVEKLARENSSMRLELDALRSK
| Substitution | binding fitness [natural log] |
| --- | --- |
| I28P | -1.5 |
| A49G | -1.44 |
| K34H | -1.52 |
| L45W | -1.42 |
| E54S | -1.43 |
| A57T | -1.52 |
| A49N | -1.39 |
| L38V | -1.52 |

Sample 2 — technique: protein-binding microarray; molecule type: double-stranded DNA, one strand shown; medium: in vitro; concentration: 2200 nM top; setting: 60-bp whole probe; added: salmon DNA 0.4 mg/ml; baseline: random background probes; reading: higher = stronger binding; constant ends, left off below: GCCTAGCAC … GTCTTGATTCGCTTGACGCTGCTG
Target: Interferon regulatory factor 7, full length, phosphomimetic (IRF7, Homo sapiens, UniProt Q92985, residues 1-503, S471D/S472D/S475D/S476D/S477D/S483D/S484D/S487D)
Construct (chain): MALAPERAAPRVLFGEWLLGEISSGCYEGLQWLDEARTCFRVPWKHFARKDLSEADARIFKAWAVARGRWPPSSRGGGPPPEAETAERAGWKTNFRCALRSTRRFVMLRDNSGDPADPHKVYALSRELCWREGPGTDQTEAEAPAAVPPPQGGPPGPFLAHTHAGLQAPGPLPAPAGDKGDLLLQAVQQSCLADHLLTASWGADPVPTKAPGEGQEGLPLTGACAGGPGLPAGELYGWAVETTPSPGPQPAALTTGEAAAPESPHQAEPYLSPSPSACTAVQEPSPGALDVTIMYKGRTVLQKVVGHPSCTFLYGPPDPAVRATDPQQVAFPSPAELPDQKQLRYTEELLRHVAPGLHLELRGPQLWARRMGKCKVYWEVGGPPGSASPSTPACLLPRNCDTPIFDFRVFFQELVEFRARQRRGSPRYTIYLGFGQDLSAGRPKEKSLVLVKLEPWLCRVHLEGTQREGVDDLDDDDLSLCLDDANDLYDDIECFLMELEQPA
| Strand | fitted relative affinity [z-score] |
| --- | --- |
| TCACTCACCTAGTTTCATACTGTGCTA | 2.59 |
| TTAGATTTCAGGACTGGATTAGTGCTA | -0.19 |
| GAGGAACTGAGTTTCGAGACGTGCTAG | 1.71 |
| GACGGTTTCGGTTTAGGGACGTGCTAG | 12.8 |
| GGGCGGGTGCCAACTCTTAGGTGCTAG | -1.38 |
| TCAGCCATATTTATCTGACTGTGCTAG | 0.451 |
| GACGGTTTCGACTATCTGGACGTGCTA | 3.33 |
| ATAGATATGCCAAATCTGTGTGTGCTA | 0.16 |

Sample 3 — technique: RNA Bind-n-Seq; molecule type: RNA; medium: in vitro; concentration: 365 nM; baseline: no-protein control; reading: higher = stronger binding
Target: RNA binding protein fox-1 homolog 2, RRM domain, GST-SBP tag (RBFOX2, Homo sapiens, UniProt O43251-10, residues 100-194)
Setting: natural RNA segment, single round, ends assumed
Constant ends, left off below: GGGAGUUCUACAGUCCGACGAUC … UGGAAUUCUCGGGUGCCAA
| Strand | RBNS enrichment (R) |
| --- | --- |
| AGUGAGACAUAUGGGUGAGUCAUAAUAAUCAAAAUAAUUUAUGAAGAGCUGGGUCUGCAAUAGCUAGUCUAAAAACUACUUGUGUGUCAGUCCUCUGGUUAUAGUAUAUA | 8.3 |
| GAAUGACAGUCCGUCAAAACAGAUUGUUUGCAAAGGGGAGGCAUCAGUGUCCUUGGCAGGCUGAUUUCUAGGUAGGAAAUGUGGUAGCCUCACUUUUAAUGAACAAAUGG | 1.01 |
| AUUUUGGUAAGAAAAACAUCAAAGGUCCCCUUGGGAAUUUCAAAGGUUGGAAAUUAUACGUUUAUACUUUUAUUAGUUUGCUCCAAGUAUGACUGUGUUCACUUAAGUUU | 2.75 |
| AAGUAAAGCACCCUUUUGUAAUGCAAUUAAUUAUCCCUUAAUGUAUCUGUUUUGUAAGUCUGCAUUUUUGUAUAUCGGAUUUACCUUAAGCUUCUCUAGUGAGGCAUUCU | 0.782 |
| AGUCACUUCUGGCGCAUUUUAAUAAUUUAAAGAUUUUUAGUGCAAUGGCACGGUAACCUCCAAACCUGAAUUAGACAGAGACUCACUCAGGAAGUGACAGGCCCAUCAUA | 0.409 |
| GAGAAGCCCUAAUUAACAACGUUGGUGACUUGUGUAAAAUGGAUUUGUAACCUACAAGUCACCAAACGAUGACUAGAAGCUGCAGUGCUGUACAGGAAUGUGAAGGGAGG | 1.14 |
| ACCUACUCCCCUAGGUCACAACUCUGGGAAGGAUACAGAGCCCCCACCCUUCACUGAGUUCUCUGGAUUUGUUCUCAGUGCCUUAGCAACGAAAACCUGUGCUUGUGUGU | 0.764 |
| GCAUGCAAAGCAGACUGCAGCUAGUUAAGAGGAGGCUGCAGUAUCAUCCCUAGUAUCUGCUCUGCAAACCAUCUAGACAGAAGCAGUAGGCCUGGCUUUCUCAACUGCCU | 3.27 |

Further values, each from its own experiment
| SMILES | target | assay | conditions | quantity | result |
| --- | --- | --- | --- | --- | --- |
| CO[C@@H](C)c1c(Nc2ccc([C@@H](N(C)C(=O)C3CCS(=O)(=O)CC3)C(F)(F)F)cc2)cnc2cc(Cl)nn12 | Serine/threonine-protein kinase N1 (PKN1, Homo sapiens, UniProt Q16512) | cell-free assay, competition with immobilised ligand | 1 µM | remaining binding | 99% |

Repeated from above (sample 1):
| Substitution | binding fitness [natural log] |
| --- | --- |
| A49G | -1.44 |
| K34H | -1.52 |
| L45W | -1.42 |
| E54S | -1.43 |
